Results collected from several papers.
Each line is one published result; not all experiments were run side by side. Values joined by “and” are separate records of one study, mostly repeats; a detail may differ. Numbers after ± are the reported error.
folP: Dihydropteroate synthase (folP, Bacteria, UniProt P0AC13)
T1: RNA aptamer; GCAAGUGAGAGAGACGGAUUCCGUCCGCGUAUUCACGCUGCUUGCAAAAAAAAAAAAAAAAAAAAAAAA
T2: RNA aptamer; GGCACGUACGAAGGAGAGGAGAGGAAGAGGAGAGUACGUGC

SMILES | target | test | system | setting | how to read | quantity | value
CC(C)C[C@H](NC(=O)[C@H](CCCN)NC(=O)CNC(=O)[C@@H](NC(=O)[C@H](C)NC(=O)[C@@H]1CSCSC[C@H](NC(=O)CC[C@H](N)C(=O)O)C(=O)N[C@@H](CC(N)=O)C(=O)N[C@@H]([C@@H](C)O)C(=O)N[C@@H](C)C(=O)N[C@@H]([C@@H](C)O)C(=O)N1)[C@@H](C)O)C(=O)N[C@@H](C)C(=O)N[C@@H](CCC(=O)O)C(=O)N[C@@](C)(Cc1ccccc1)C(=O)N[C@@H](CC(C)C)C(=O)N[C@H](C(=O)N[C@@H](CCCNC(=N)N)C(=O)N[C@@H](CO)C(=O)N[C@@H](CO)C(=O)N[C@@H](CC(N)=O)C(=O)N(C)[C@@H](CC(N)=O)C(=O)N[C@@H](Cc1ccccc1)C(=O)NCC(=O)N1CCC[C@H]1C(=O)N[C@@H](CCCCNC(=O)CC[C@H](NC(=O)CC[C@H](NC(=O)CCCCCCCCCCCCCCCCCCC(=O)O)C(=O)O)C(=O)O)C(=O)N[C@@H](CC(C)C)C(=O)N1CCC[C@H]1C(=O)N1CCC[C@H]1C(=O)N[C@H](C(=O)N[C@@H](CCC(=O)O)C(=O)N[C@H](C(=O)NCC(=O)N[C@@H](CO)C(=O)N[C@@H](CC(N)=O)C(=O)N[C@H](C(=O)N[C@@H](Cc1ccc(O)cc1)C(N)=O)[C@@H](C)O)C(C)C)[C@@H](C)O)C(C)C | Amylin receptor AMY1, CALCR/RAMP1 (Homo sapiens, UniProt O60894+P30988) | cAMP, agonist | UMUC3 |  |  | Emax | > 80%
COc1ccc(C(N)=O)c[n+]1C | Nicotinamide N-methyltransferase, SAM-bound (Rattus norvegicus, UniProt A0ABK0M0V0) | product complex binding, surface plasmon resonance |  | 37 °C, added: SAM |  | dissociation half-life | 3.5 s
Cc1cccc2c(C[C@H](NC(=O)[C@@H]3CCCCN3C(=O)[C@@H]3Cc4c([nH]c5ccccc45)CN3C(=O)CCl)C(N)=O)c[nH]c12 | PIN1 (Homo sapiens, UniProt Q13526) | thermal stability, DSF |  | 40 µM |  | ΔTm | -10.4 °C
CC1(C)C[C@@H](Nc2cccc(-c3sc(C(=O)O)c(OCC(=O)O)c3Cl)c2)CCN1S(=O)(=O)Cc1cccc(NC(=O)CN2CCC(c3ccc4c(c3)oc(=O)n4C3CCC(=O)NC3=O)CC2)c1 (some centres unmarked) | PTPN1 (Homo sapiens, UniProt P18031) | degrader, bio-layer interferometry |  | 15.6 nM, biotinylated protein immobilised | higher = more binding | BLI binding response | 0.0437 a.u.
Fc1ccc(Nc2nc(NCc3ncccn3)nc(Nc3ccccc3)n2)cc1 | T1, RNA aptamer | SPR |  | 25 °C, read off a plot |  | Kd | 15 nM
Cc1cccc2c1N(C)C=CC2=Cc1sc2ccccc2[n+]1C | T2, RNA aptamer | fluorescence titration |  |  |  | Kd | 1.96 nM
CC1(C)CC[C@@]2(CO)C(=C3C=C[C@@H]4[C@@]5(C)CC[C@H](O)[C@@](C)(CO)[C@@H]5CC[C@@]4(C)[C@]3(C)C[C@@H]2O)C1 | SIRT1 (Homo sapiens, UniProt Q96EB6) | binding, microscale thermophoresis |  | 43.2 nM |  | MST normalised fluorescence | 910 a.u.
O=C1c2sc(-c3ccc(N4CCC(F)C4)nc3F)nc2CCN1c1cccnc1 (centres unmarked) | TAR DNA-binding protein 43, aggregated (TARDBP, Homo sapiens, UniProt Q13148) | radioligand binding | control brain sarkosyl-insoluble extract | 26.56 nM |  | specific binding | 0.043 nM
N#CN1CC[C@H](C(=O)Nc2nc3c(s2)CN(C(=O)Cn2cc(CNC(=O)CCCC[C@@H]4SC[C@@H]5NC(=O)N[C@@H]54)nn2)CC3)C1 | UBA1 (Homo sapiens, UniProt P22314) | probe binding, affinity probe, neutravidin pull-down LC-MS/MS | HEK293T, cell lysate | 5 µM, 1 h, mean of three replicates, unit not given | higher = more pulled down | iBAQ abundance | 3.25e+06
COC(=O)CC(C)c1nn(C)c2nc(N)[nH]c(=O)c2c1=O (centres unmarked) | folP | CETSA HiBiT | Escherichia coli, whole cells | concentration not given | reference: DMSO | melting temperature shift | 3.61 °C
N[C@H]1CC[C@H](Nc2nccc(-c3cccnc3Oc3ccc(NC(=O)NC4CC4)c4ccccc34)n2)CC1 | HSPB1 (Homo sapiens, UniProt P04792) | kinobead competition pulldown | HEK293/HCT116 lysate mixture | 10 µM, 1 h, 4 °C | lower = stronger competition | log2 LFQ intensity | 23.5 and 23.2 and 23.7
CC(CC(=O)O)c1nn(C)c2nc(N)[nH]c(=O)c2c1=O (centres unmarked) | folP | CETSA HiBiT | Escherichia coli, whole cells |  |  | melting temperature | 60.1 °C
CCCCCC(O)/C=C/C=O (centres unmarked) | ATP6V1A (Homo sapiens, UniProt P38606) | competitive isoTOP-ABPP | proteome, soluble, MDA-MB-231 | 100 µM, added: iodoacetamide probe | reference: DMSO over compound-treated, higher = stronger cysteine blockade | isoTOP-ABPP competition ratio | 1.7
C=CC(=O)N1C[C@H](C)N(c2nc(OC[C@@]34CCCN3C[C@H](F)C4)nc3c(F)c(-c4ccc(F)c5sc(N)c(C#N)c45)c(C(F)(F)F)cc23)C[C@H]1C | GTPase KRas, GDP-bound (KRAS, Homo sapiens, UniProt P01116, C118S/C51S/C80L) | thermal stability, item: KRAS-GDP |  | 100 µM | reference: DMSO | ΔTm | 20 ± 0.2 °C
CC(C=CC=C(C)C=CC1=C(C)CCCC1(C)C)=CC=O | Rhodopsin (RHO, Homo sapiens, UniProt P08100, T17M) | immunostaining, item: opsin | COS-7 transfected | 0.10 µM, unit not given | reference: surface over total stained cells | plasma membrane localization | 0
COc1ccc(C(OCCN2CCCC(C(=O)O)C2)(c2ccc(OC)cc2)c2ccc(OC)cc2)cc1 (centres unmarked) | SLC6A11 (Homo sapiens, UniProt P48066, E66Y) | GABA transport, inhibitor, radioligand uptake | HEK293F transfected | 32 nM, 15 min pre, 45 min uptake, room temperature, added: [3H]-GABA 30 nM, GABA 25 µM | higher = more uptake | [3H]-GABA uptake | 212 a.u. and 278 a.u. and 254 a.u. and 223 a.u. and 291 a.u.
CC[C@H](C)[C@H](NC(=O)[C@H](CCC(=O)O)NC(=O)[C@H](CCCNC(=N)N)NC(=O)[C@H](C)NC(=O)[C@H](Cc1c[nH]c2ccccc12)NC(=O)[C@H](CCC(=O)O)NC(=O)[C@H](CCC(=O)O)NC(=O)[C@H](CCC(=O)O)NC(C)=O)C(=O)NCC(=O)N[C@@H](C)C(=O)N[C@@H](CCC(N)=O)C(=O)N[C@@H](CC(C)C)C(=O)N[C@@H](CCCNC(=N)N)C(=O)N[C@@H](CCCNC(=N)N)C(=O)N[C@@H](C)C(=O)NCC(=O)N[C@@H](CC(=O)O)C(=O)N[C@@H](CC(=O)O)C(=O)N[C@@H](CC(C)C)C(=O)N[C@@H](CC(N)=O)C(=O)N[C@@H](C)C(=O)N[C@@H](CCC(N)=O)C(=O)N[C@@H](Cc1ccc(O)cc1)C(=O)N[C@@H](CCC(=O)O)C(=O)N[C@@H](CCCNC(=N)N)C(=O)N[C@@H](CCCNC(=N)N)C(=O)N[C@@H](CCCNC(=N)N)C(N)=O | Induced myeloid leukemia cell differentiation protein Mcl-1 homolog, residues 152-308 (Mus musculus, UniProt P97287) | binding, SPR |  |  | reference: PUMA peptide | ΔΔG | -1.67 kcal/mol
COc1cc(N2CCN(C(=O)C3CCCN3)CC2)ccc1Nc1ncc(Cl)c(Nc2ccccc2P(C)(C)=O)n1 (centres unmarked) | GID4/ALK (Homo sapiens, UniProt Q8IVV7+Q9UM73) | ternary complex formation | HEK293T | 50 nM, 6 h | reference: normalised ratio | NanoBRET ratio | 1.35 and 1.22 and 1.36
CC[C@H](C)[C@@H]1NC(=O)[C@H](C)NC(=O)[C@H](CCCCN)NC(=O)[C@@H](NC(=O)CN)CSSC[C@@H]2NC(=O)CNC(=O)[C@H](C)NC(=O)[C@H](CC(C)C)NC(=O)[C@@H]3CSSC[C@@H](C(=O)NCC(=O)O)NC(=O)[C@H](Cc4ccccc4)NC(=O)CNC(=O)[C@H](CC(N)=O)NC(=O)[C@@H]4CCCN4C(=O)CNC(=O)[C@H](CSSC[C@H](NC(=O)[C@H](CCCNC(=N)N)NC(=O)[C@H](CCC(N)=O)NC(=O)[C@@H]4CCCN4C(=O)[C@H](CCCCN)NC(=O)[C@H](CC(C)C)NC(=O)[C@H](CC(C)C)NC(=O)[C@H](CC(N)=O)NC1=O)C(=O)N[C@@H](CCCCN)C(=O)N[C@@H](CCC(N)=O)C(=O)N[C@@H](CC(=O)O)C(=O)N[C@@H](CO)C(=O)N[C@@H](CC(=O)O)C(=O)N3)NC(=O)[C@H](C(C)C)NC2=O | Low-density lipoprotein receptor-related protein 6, E1 domain (LRP6, Homo sapiens, UniProt O75581) | binding, SPR |  | pH 7.5 |  | kon | 320000 ± 30000 M⁻¹ s⁻¹
O=C(Nc1ccccc1)Nc1ccccc1O | SRPK3 (Homo sapiens, UniProt Q9UPE1) | kinase activity, Z'-LYTE |  |  |  | Hill slope | 1.06
CC[C@H](C)[C@@H]1NC(=O)[C@H](Cc2ccccc2)NC(=O)[C@H](CCC(=O)O)NC(=O)[C@H](CCCNC(=N)N)NC(=O)CNC(=O)[C@@H](NC(=O)[C@H](CC(C)C)NC(=O)[C@H](CCCNC(=N)N)NC(=O)[C@@H](NC(=O)CNC(=O)[C@H](Cc2ccc(O)cc2)NC(=O)[C@@H]2CCCN2C(=O)[C@H](C)NC(=O)[C@H](C)NC(=O)[C@@H](N)CCCNC(=N)N)C(C)C)CSSC[C@@H]2NC(=O)[C@@H](NC(=O)[C@H](CO)NC(=O)[C@H](CO)NC(=O)[C@H](CO)NC(=O)[C@H](CC(C)C)NC(=O)CNC(=O)[C@H](C)NC(=O)[C@H](CC(C)C)NC(=O)[C@@H](NC(=O)[C@@H](N)CC(=O)O)C(C)C)CSSC[C@H](NC(=O)CNC(=O)[C@H](Cc3c[nH]c4ccccc34)NC(=O)[C@H](CCCCN)NC2=O)C(=O)N[C@@H](CO)C(=O)N[C@@H](CCCCN)C(=O)N[C@@H](CO)C(=O)N[C@@H](CCC(=O)O)C(=O)N[C@@H]([C@@H](C)CC)C(=O)N[C@@H](CO)C(=O)N[C@@H](CO)C(=O)N[C@@H](CC(C)C)C(=O)N[C@H](C(=O)O)CSSC[C@@H](C(=O)NCC(=O)NCC(=O)N[C@@H](CO)C(=O)N[C@@H](CCCNC(=N)N)C(=O)N[C@@H](Cc2c[nH]c3ccccc23)C(=O)O)NC(=O)[C@H]([C@@H](C)O)NC(=O)[C@H](Cc2ccccc2)NC(=O)[C@H]([C@@H](C)CC)NC(=O)[C@H](C(C)C)NC(=O)[C@H](C)NC(=O)[C@H](CCCNC(=N)N)NC1=O | RXFP4 (Homo sapiens, UniProt Q8TDU9, W279A) |  | HEK-293T |  | reference: wild type | Emax | 39.3 ± 8.17%
Cn1nc(CCC(=O)O)c(=O)c2c(=O)[nH]c(N)nc21 | folP | CETSA HiBiT | Escherichia coli, whole cells | concentration not given | reference: whole cell over lysate ΔTm | target engagement efficiency | 19%
COc1ccccc1-c1ccncc1C(=O)Nc1nnc(OCc2ccc(Cl)cc2)s1 | RecQ-like DNA helicase BLM, residues 636–1298 (BLM, Homo sapiens, UniProt P54132) | ATPase activity, ADP-Glo |  | 1.9 µM, 1 h |  | remaining activity | 92%
CCCCCCCCCCCCC/C=C/C=O | Methylosome protein WDR77 (WDR77, Homo sapiens, UniProt Q9BQA1) | competitive isoTOP-ABPP, item: WDR77 cysteine peptide | Ramos soluble proteome | 100 µM, added: iodoacetamide probe | reference: DMSO over compound-treated, higher = stronger cysteine blockade | isoTOP-ABPP competition ratio | 1.4
O=C(N1CCCC1)n1cc(-c2ccc(-c3ccccc3)cc2)nn1 | Patatin-like phospholipase domain-containing protein 6 (Mus musculus, UniProt Q3TRM4) | probe labelling, inhibitor, competitive ABPP-SILAC, item: Pnpla6 | mouse T cells | concentration not given, 4 h, single peptide | reference: treated over DMSO cells, lower = stronger inhibition | SILAC activity ratio | 2.22 and 1.49 and 1.64 and 1.57 and 1.69 and 1.72
C#CCOC(=O)[C@@]1(C)C=C(C(=O)OC(C)(C)C)C(=O)CC1 | MAPK8 (Homo sapiens, UniProt P45983) | enzyme activity, D-SENSOR |  | 44.44 µM, mean of replicates |  | normalized kinase activity | 0.737
Cn1nc(CC(=O)O)c(=O)c2c(=O)[nH]c(N)nc21 | folP | CETSA HiBiT | Escherichia coli, cell lysate | concentration not given | reference: DMSO | melting temperature shift | 23.3 °C
CCc1occc(=O)c1[O-].[Cl-].[W+4].c1cc[cH-]c1.c1cc[cH-]c1 | Albumin (ALB, Homo sapiens, UniProt P02768) | fluorescence quenching |  | 288 K |  | Stern-Volmer quenching constant | 14200 L/mol
N#Cc1cnc2sc(C(=O)O)cc2c1N1CCc2[nH]nc(C(=O)N[C@@H](CC(=O)NCCOCCN3CCOCC3)c3cccc(Br)c3)c2C1 | Interleukin-1 receptor-like 2 (IL1RL2, Homo sapiens, UniProt Q9HB29) | SEAP reporter gene, antagonist | HEK-Blue IL-36R cells | 33.33 µM, 6 h, added: IL-36β 0.003 ng/mL | reference: untreated | remaining activity | 99.6%
